Measurements pooled from the literature.
Compare with care: the assays were run in different laboratories. Values joined by “and” are separate records of one study, mostly repeats; a detail may differ. ± gives the spread as reported.

CC[C@H](C)[C@@H]([C@@H](CC(=O)N1CCC[C@H]1[C@H](OC)[C@@H](C)C(=O)N[C@H](C)[C@@H](O)c1ccccc1)OC)N(C)C(=O)[C@@H](NC(=O)[C@@H](NC)C(C)C)C(C)C: tumour weight “decreased” (C57BL/6 mouse, subcutaneous Lewis lung carcinoma; dose not given, end of study).
C[C@]12CC[C@H](n3ccnc3)CC1=CC[C@@H]1[C@@H]2CC[C@]2(C)C(n3cnc4ccccc43)=CC[C@@H]12: “tumour growth inhibition” 83.8% (mouse CWR22Rv1 xenograft; oral, 20 mg/kg once daily, 16 days, 5 days per week).
O=C1[O][Pt]2([NH][C@@H]3CCCC[C@H]3[NH]2)[O]C1=O gave a tumour weight of 0.55 g and 0.706 g and 1.03 g and 0.387 g and 0.642 g (NSG mouse HCT-116 xenograft; intraperitoneal, 7.5 mg/kg).
Under tumour uptake, CC1(C)CN(CCCCC(=O)N[C@H](Cc2ccc(O)c(I)c2)C(=O)N[C@H](Cc2ccccc2)C(=O)N[C@H](CCCCNC(=O)CCCCCCC(=O)NCCCC[C@H](NC(=O)N[C@@H](CCC(=O)O)C(=O)O)C(=O)O)C(=O)O)CC[N]2CC(C)(C)[S][Tc]2(=[O])[S]1 (some centres unmarked) [technetium-99m labelled] is recorded as “decreased” (SPECT/PET imaging; mouse, subcutaneous LNCaP tumour, tumour; dose not given, 4 h post-injection).
C[C@]12CC[C@H](O)C[C@H]1CC[C@@H]1[C@@H]2CC[C@]2(C)[C@@H](c3ccc(=O)oc3)CC[C@]12O gave a tumour volume of 29.8 mm3 and 63.1 mm3 and 47.4 mm3 and 41.1 mm3 and 48.1 mm3 and 46.4 mm3 and 59.2 mm3 (female nude mouse LCC2 xenograft; 1.0 mg/kg, day 13, tamoxifen-resistant).
For C[C@]12CC[C@H](O)CC1=CC[C@@H]1[C@@H]2CC[C@]2(C)C(n3cnc4ccccc43)=CC[C@@H]12.Cl, “tumour growth inhibition” read 137% (mouse CWR22Rv1 xenograft; oral, 48 mg/kg once daily, 16 days, 5 days per week).
Cc1n[nH]cc1-c1cc2nc([C@@H]3CC4CCN3CC4)[nH]c(=O)c2s1 has a tumour volume of 493 ± 58 mm3 (mouse COLO 205 xenograft; oral, 20 mg/kg twice daily, 21 days).
COc1cc2c3c(n(CCCN4CCOCC4)c(=O)c2cc1OC)-c1cc2c(cc1C3=O)OCO2: “tumour growth reduction” 75.6% (bioluminescence imaging; GL261-Luc, mouse orthotopic glioblastoma; intravenous, 25 mg/kg, day 21; relative to: control).
O=C([O-])CN1CCN(CC(=O)[O-])CCN(CC(=O)NCC2CCC(C(=O)N[C@@H](Cc3ccc4ccccc4c3)C(=O)NCCCC[C@H](NC(=O)N[C@@H](CCC(=O)O)C(=O)O)C(=O)O)CC2)CCN(CC(=O)[O-])CC1.[177Lu+3] (some centres unmarked): “tumour growth inhibition” 73.4% (mouse 22Rv1 xenograft; intravenous, 14.8 MBq).
For CC[C@H](C)[C@H](NC(=O)[C@H](CCCCN)NC(=O)[C@@H](NC(=O)[C@H](CCCNC(=N)N)NC(=O)[C@@H](NC(=O)[C@@H](CCCNC(=N)N)NC(=O)[C@@H](CCCNC(=N)N)NC(=O)[C@@H](CCCNC(=N)N)NC(=O)[C@@H](CCCNC(=N)N)NC(=O)[C@@H](CCCNC(=N)N)NC(=O)[C@H](N)CCCNC(=N)N)[C@@H](C)O)[C@@H](C)O)C(=O)N[C@@H](CC(=O)O)C(=O)N[C@@H](Cc1c[nH]c2ccccc12)C(=O)NC(C)(C)C(=O)N[C@@H](CCCCN)C(=O)N[C@H](C(=O)N[C@@H](CC(C)C)C(=O)NC(C)(C)C(=O)N[C@@H](CCCCN)C(=O)NCCCCCC(=O)NCCCC[C@H](NC(=O)CCCCCNC(=O)[C@H](CCCCN)NC(=O)C(C)(C)NC(=O)[C@H](CC(C)C)NC(=O)[C@@H](NC(=O)[C@H](CCCCN)NC(=O)C(C)(C)NC(=O)[C@H](Cc1c[nH]c2ccccc12)NC(=O)[C@H](CC(=O)O)NC(=O)[C@@H](NC(=O)[C@H](CCCCN)NC(=O)[C@@H](NC(=O)[C@H](CCCNC(=N)N)NC(=O)[C@@H](NC(=O)[C@@H](CCCNC(=N)N)NC(=O)[C@@H](CCCNC(=N)N)NC(=O)[C@@H](CCCNC(=N)N)NC(=O)[C@@H](CCCNC(=N)N)NC(=O)[C@@H](CCCNC(=N)N)NC(=O)[C@H](N)CCCNC(=N)N)[C@@H](C)O)[C@@H](C)O)[C@@H](C)CC)[C@@H](C)CC)C(N)=O)[C@@H](C)CC, tumour growth read “inhibited” (B16-F10, C57BL/6J mouse syngeneic melanoma; intravenous, 50 mg/kg, up to 8 days, dosed days 0 to 7).
Under “tumour regression rate”, CC[C@@H](C)[C@@H](NC(=O)[C@@H](Cc1ccc(O)cc1)NC(=O)[C@H]1CCCN1C(=O)[C@@H](CCCNC(=N)N)NC(=O)[C@H](N)Cc1c[nH]cn1)C(=O)N[C@H](C)C(=O)N[C@H](Cc1c[nH]cn1)C(=O)N[C@H](CCCNC(=N)N)C(=O)N[C@H](CCCCNC(=O)c1cccc(S(=O)(=O)F)c1)C(=O)N[C@H](Cc1ccc(O)cc1)C(=O)N[C@H](CO)C(=O)N[C@H](Cc1ccccc1)C(N)=O is recorded as 50% (mouse orthotopic GL261-Luc glioma; intraperitoneal, 3.9 mg/kg).

Excerpt of the above:
For C[C@]12CC[C@H](O)CC1=CC[C@@H]1[C@@H]2CC[C@]2(C)C(n3cnc4ccccc43)=CC[C@@H]12.Cl, “tumour growth inhibition” read 137% (mouse CWR22Rv1 xenograft; oral, 48 mg/kg once daily, 16 days, 5 days per week).
